# Measurements of several laboratories.
# Sample: plasma
Compound,species,route,dose,setting,AUC [ng·h/mL]
CC(C)(C)NCC(SS(=O)(=O)O)c1ccccc1 (stereo not drawn),female Swiss mouse,oral,100 mg/kg,,1430
CCS(=O)(=O)c1ccccc1C(=O)N1CCN(c2nc3ccc(F)cc3s2)C[C@@H]1C,mouse,oral,3 mg/kg,,988
Cc1cc(O)cc(O)c1C(=O)c1c2c3c(c(O)cc(C)c3oc1=O)C(=O)c1c(O)cc(O)cc1-2,male Kunming mouse,intraperitoneal,30 mg/kg,,41600
COC1C=COC2(C)Oc3c(C)c(O)c4c(c3C2=O)C2=NC3(CCN(CC(C)C)CC3)NC2=C(NC(=O)C(C)=CC=CC(C)C(O)C(C)C(O)C(C)C(OC(=O)c2cncnc2)C1C)C4=O (stereo not drawn),female CD-1 mouse,oral,10 mg/kg,,33900
Nc1ccn(C[C@@H](CO)OCP(=O)(O)OCCCS(=O)(=O)CCCCCCCCCCCCCC2CCC2)c(=O)n1,mouse,intravenous,3 mg/kg,single dose,807
COc1ccccc1NC(=O)OC1C(C)C(OC)C=COC2(C)Oc3c(C)c(O)c4c(c3C2=O)C2=NC3(CCN(CC(C)C)CC3)NC2=C(NC(=O)C(C)=CC=CC(C)C(O)C(C)C(O)C1C)C4=O (stereo not drawn),female CD-1 mouse,oral,10 mg/kg,,11300
O=C(c1ccccc1)N1C(c2ccc(OCC3CCN(CCCF)C3)cc2)c2ccc(O)cc2CC12CC2 (stereo not drawn),C57BL/6 mouse,intraperitoneal,25 mg/kg,,8350
CCc1nc(N)nc(N)c1C#C[C@H](C)c1cc(-c2ccncc2)ccc1OC,mouse,oral,16 mg/kg,single dose,410
CN(C)CCNC(=O)/C=C/C(Cc1ccccc1)Nc1ccnc2cc(Cl)ccc12 (stereo not drawn),CD-1 mouse,oral,5 mg/kg,single dose,148
Nc1ccn(C[C@@H](CO)OCP(=O)(O)OCCCS(=O)(=O)CCCCCCCCCCCCC2CCC2)c(=O)n1,mouse,intravenous,3 mg/kg,single dose,523
CC(C)CCN(c1nc(C#N)nc(NC2COC2)n1)C(C)c1ccc(F)cc1 (stereo not drawn),mouse,intraperitoneal,10 mg/kg,single dose,1660
CCc1nc(N)nc(N)c1C#C[C@H](C)c1cc(-c2cc(C)nc(C)c2)ccc1Cl,mouse,intraperitoneal,5 mg/kg,,14000
CC(C)CCN(Cc1ccc(F)cc1)c1nc(C#N)nc(N2CCOCC2)n1,mouse,intraperitoneal,10 mg/kg,single dose,195
NC(=O)c1c(F)ccc(OCc2nc3cc(Cl)cnc3s2)c1F,mouse,oral,3 mg/kg,,1390
COC1C=COC2(C)Oc3c(C)c(O)c4c(c3C2=O)C2=NC3(CCN(CC(C)C)CC3)NC2=C(NC(=O)C(C)=CC=CC(C)C(O)C(C)C(O)C(C)C(OC(=O)Nc2cccnn2)C1C)C4=O (stereo not drawn),female CD-1 mouse,oral,10 mg/kg,,40300

# Excerpt of the above:
Compound,species,route,dose,setting,AUC [ng·h/mL]
NC(=O)c1c(F)ccc(OCc2nc3cc(Cl)cnc3s2)c1F,mouse,oral,3 mg/kg,,1390
COC1C=COC2(C)Oc3c(C)c(O)c4c(c3C2=O)C2=NC3(CCN(CC(C)C)CC3)NC2=C(NC(=O)C(C)=CC=CC(C)C(O)C(C)C(O)C(C)C(OC(=O)Nc2cccnn2)C1C)C4=O (stereo not drawn),female CD-1 mouse,oral,10 mg/kg,,40300
